Assay results gathered from unrelated publications.
Lines come from different studies, so protocols differ.
UniProt O14920, sequence (whole entry, looked up): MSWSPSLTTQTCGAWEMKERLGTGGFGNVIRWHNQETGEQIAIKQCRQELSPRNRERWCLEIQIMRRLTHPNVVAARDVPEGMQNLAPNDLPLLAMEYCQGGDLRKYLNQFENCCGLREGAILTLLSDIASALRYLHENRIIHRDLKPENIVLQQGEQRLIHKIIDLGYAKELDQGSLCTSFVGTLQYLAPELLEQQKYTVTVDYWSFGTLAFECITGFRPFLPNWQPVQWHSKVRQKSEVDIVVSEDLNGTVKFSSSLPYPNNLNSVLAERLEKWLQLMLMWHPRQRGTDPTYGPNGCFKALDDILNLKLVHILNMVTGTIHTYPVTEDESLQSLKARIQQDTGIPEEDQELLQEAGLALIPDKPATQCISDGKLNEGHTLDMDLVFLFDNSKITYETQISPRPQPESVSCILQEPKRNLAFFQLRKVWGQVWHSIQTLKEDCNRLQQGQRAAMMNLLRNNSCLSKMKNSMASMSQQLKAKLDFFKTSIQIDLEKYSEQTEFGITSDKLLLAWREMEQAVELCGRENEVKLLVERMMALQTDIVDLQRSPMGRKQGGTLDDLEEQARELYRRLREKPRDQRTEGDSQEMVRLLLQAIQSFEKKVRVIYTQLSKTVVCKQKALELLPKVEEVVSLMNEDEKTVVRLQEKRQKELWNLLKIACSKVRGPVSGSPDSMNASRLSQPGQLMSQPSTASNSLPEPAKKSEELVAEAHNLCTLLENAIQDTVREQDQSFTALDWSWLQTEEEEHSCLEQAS
UniProt P35462, sequence (whole entry, looked up): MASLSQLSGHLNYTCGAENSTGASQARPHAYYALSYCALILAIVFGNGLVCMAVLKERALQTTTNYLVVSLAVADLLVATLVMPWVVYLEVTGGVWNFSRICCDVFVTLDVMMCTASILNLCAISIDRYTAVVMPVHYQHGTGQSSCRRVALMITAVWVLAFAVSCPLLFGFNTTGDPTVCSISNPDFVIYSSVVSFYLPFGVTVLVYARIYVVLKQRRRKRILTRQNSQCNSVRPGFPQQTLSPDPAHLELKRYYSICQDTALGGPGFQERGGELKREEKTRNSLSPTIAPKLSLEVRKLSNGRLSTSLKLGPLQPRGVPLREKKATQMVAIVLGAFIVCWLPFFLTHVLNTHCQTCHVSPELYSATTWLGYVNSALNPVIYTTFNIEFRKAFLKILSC
UniProt P51813, sequence (whole entry, looked up): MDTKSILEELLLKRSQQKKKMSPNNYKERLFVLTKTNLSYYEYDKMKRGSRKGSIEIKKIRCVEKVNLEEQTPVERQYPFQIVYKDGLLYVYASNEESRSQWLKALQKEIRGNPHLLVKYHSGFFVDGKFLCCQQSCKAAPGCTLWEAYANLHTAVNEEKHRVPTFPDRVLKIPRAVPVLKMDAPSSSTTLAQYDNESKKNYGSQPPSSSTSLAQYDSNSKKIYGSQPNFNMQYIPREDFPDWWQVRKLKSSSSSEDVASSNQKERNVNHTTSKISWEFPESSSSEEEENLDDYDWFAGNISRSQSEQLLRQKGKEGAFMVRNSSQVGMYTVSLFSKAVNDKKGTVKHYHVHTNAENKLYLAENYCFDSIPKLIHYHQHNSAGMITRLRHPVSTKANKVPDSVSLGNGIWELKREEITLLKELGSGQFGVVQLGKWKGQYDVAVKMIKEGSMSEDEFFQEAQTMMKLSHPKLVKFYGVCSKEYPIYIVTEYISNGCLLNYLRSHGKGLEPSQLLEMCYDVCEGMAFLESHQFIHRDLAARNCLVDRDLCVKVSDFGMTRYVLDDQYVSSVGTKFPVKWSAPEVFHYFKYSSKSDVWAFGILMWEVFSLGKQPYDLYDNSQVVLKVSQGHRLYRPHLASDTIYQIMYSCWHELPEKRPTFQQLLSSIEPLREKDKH
UniProt O15264, sequence (whole entry, looked up): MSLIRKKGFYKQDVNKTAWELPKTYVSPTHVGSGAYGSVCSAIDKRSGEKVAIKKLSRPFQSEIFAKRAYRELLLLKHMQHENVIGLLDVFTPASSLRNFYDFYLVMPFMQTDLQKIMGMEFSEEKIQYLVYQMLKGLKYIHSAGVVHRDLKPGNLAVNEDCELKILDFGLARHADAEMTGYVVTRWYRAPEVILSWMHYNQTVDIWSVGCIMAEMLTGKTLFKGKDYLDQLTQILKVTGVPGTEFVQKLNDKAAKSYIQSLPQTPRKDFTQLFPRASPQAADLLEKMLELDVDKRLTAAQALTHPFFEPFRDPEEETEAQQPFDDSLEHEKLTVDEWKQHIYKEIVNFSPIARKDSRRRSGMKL
UniProt Q00534, sequence (whole entry, looked up): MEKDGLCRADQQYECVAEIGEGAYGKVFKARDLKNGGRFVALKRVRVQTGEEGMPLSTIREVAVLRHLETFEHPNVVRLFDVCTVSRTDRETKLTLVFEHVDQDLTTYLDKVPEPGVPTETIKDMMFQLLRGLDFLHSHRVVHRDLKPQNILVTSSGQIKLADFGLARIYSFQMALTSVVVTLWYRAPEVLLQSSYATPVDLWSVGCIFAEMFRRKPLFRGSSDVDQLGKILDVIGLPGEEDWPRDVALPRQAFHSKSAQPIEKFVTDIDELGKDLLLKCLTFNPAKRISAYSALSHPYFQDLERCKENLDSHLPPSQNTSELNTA
UniProt P28482, sequence (whole entry, looked up): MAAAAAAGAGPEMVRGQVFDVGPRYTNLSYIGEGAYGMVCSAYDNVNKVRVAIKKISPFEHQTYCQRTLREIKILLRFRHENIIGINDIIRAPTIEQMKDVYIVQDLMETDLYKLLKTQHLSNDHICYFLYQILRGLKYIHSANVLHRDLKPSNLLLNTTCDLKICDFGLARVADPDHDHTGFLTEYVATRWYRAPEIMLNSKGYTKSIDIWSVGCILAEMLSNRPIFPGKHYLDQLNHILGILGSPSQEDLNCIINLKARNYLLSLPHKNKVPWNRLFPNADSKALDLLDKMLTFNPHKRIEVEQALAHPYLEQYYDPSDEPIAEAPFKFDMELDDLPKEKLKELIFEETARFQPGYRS
UniProt Q9UBN7, sequence (whole entry, looked up): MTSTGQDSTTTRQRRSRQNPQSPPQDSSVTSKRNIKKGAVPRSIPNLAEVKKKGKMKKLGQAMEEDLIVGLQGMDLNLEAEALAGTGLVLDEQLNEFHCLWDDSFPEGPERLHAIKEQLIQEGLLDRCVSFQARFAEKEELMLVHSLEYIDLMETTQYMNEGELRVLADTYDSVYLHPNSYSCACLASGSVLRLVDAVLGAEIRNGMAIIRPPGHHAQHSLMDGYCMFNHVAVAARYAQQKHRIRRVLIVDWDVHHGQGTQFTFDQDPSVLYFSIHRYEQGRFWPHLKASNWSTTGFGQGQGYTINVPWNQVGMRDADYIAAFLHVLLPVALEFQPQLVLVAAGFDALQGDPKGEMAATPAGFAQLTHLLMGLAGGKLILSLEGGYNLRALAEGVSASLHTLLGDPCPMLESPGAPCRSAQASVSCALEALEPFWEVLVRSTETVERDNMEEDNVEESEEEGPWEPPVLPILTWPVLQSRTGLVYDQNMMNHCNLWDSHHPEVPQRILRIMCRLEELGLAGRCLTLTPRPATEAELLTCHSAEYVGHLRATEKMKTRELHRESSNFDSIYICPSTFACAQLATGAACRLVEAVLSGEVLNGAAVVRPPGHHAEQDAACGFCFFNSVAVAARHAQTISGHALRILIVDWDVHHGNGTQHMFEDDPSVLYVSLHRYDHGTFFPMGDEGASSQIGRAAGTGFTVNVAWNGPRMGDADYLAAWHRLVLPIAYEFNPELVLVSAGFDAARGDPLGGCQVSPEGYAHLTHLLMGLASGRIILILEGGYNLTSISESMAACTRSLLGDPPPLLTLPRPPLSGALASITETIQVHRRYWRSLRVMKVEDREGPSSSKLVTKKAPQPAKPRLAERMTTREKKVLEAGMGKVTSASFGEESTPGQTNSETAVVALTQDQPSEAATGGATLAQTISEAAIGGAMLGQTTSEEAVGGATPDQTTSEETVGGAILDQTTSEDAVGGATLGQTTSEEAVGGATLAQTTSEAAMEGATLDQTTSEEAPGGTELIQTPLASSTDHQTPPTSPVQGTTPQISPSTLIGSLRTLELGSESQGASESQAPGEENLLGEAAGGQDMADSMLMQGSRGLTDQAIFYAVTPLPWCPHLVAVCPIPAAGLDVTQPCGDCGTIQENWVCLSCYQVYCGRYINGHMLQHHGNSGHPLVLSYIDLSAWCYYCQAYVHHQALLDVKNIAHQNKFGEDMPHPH
UniProt Q9BY41, sequence (whole entry, looked up): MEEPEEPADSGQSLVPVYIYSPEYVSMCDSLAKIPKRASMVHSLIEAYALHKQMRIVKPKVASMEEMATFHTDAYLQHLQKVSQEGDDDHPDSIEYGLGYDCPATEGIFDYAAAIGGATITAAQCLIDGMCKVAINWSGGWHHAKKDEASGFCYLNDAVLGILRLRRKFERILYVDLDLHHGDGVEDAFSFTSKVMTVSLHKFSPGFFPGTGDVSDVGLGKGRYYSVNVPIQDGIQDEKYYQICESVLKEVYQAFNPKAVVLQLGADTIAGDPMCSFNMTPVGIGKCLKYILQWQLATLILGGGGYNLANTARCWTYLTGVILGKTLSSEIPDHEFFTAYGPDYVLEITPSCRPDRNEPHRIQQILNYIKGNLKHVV

With `CC(C)(C)c1ccc(OS(=O)(=O)Oc2cc(F)cc(C(=O)NO)c2)cc1` the IC50 was 9.5 µM (HDAC8 (Homo sapiens, UniProt Q9BY41); enzyme activity, inhibitor, fluorescence).
For `CCn1ccc2c([C@@](O)(CC)c3ccc(C(F)(F)F)nc3)n(C)nc2c1=O`, the hepatocyte CLint was 4.5 µL/min/10⁶ cells (metabolic stability; male Sprague-Dawley rat, hepatocytes; 0.5 µM, pH 7.4).
`N=C(N)c1ccc(OCCCCCCCCCCCOc2ccc(C(=N)N)cc2)cc1` has a haemolysis of 8.5% (haemolysis; sheep; 200 µg/mL, 1 h).
`c1ccc(C2CCN(c3nc(-c4ccn[nH]4)nc4ccccc34)C2)nc1` (stereo not drawn) has a microsomal CLint of 268 µL/min/mg (metabolic stability; mouse, liver microsomes).
With `CCN1CCN(Cc2ccc(NC(=O)c3ccc(C)c(NC(=O)c4cncc(-c5cccs5)c4)c3)cc2C(F)(F)F)CC1` the AUC(0-inf) was 2210 ng·h/mL (mouse, plasma; intraperitoneal, 20 mg/kg, single dose).
`c1ccc(-c2nc(N3CCc4cccnc4C3)c3ccccc3n2)nc1` gave a Papp of 22.5 ×10⁻⁶ cm/s (PAMPA; 10 µM, 3 h, pH 7.4).
`O=C(COc1ccc(Cl)cc1)NC12CC(c3nnc([C@H]4C[C@@H](OC(F)(F)F)C4)o3)(C1)C2` has a Cmax of 2.59 µM (human, plasma; oral, 45 mg, multiple doses, once daily, steady state, healthy volunteers).
For `N=C(N)c1cccc(OCCCCCOc2cccc(C(=N)N)c2)c1`, the haemolysis was 0.1% (haemolysis; sheep; 200 µg/mL, 20 h).
With `CCCN(O)N=Nc1ccc(S(=O)(=O)Nc2cc(C)on2)cc1` the inhibition was 26.8% (ABTS scavenging; 120 µg/mL).
`c1ccc(-c2nc(N3CCCC(c4ccccn4)C3)c3ccccc3n2)nc1` (stereo not drawn) gave a microsomal CLint of 522 µL/min/mg (metabolic stability; mouse, liver microsomes).
`CCn1ccc2c([C@](O)(c3cnc(C(F)(F)F)c(Cl)c3)C3CC3)n(C)nc2c1=O` has a hepatocyte CLint of 3.4 µL/min/10⁶ cells (metabolic stability; human, hepatocytes; 0.5 µM, pH 7.4).
With `O=C1c2ccncc2C(=O)c2c1[nH]c1ccccc21` the Cmax was 3.43 µM (rat, plasma; intravenous, 5 mg/kg, single dose).
The compound remaining of `O=C(c1ccc(F)cc1)C1CCN(CCn2c(=O)[nH]c3ccccc3c2=O)CC1` is reported as 12.5% (metabolic stability, mass spectrometry; mouse, liver microsomes; 1 h).
`Cn1nc2c(=O)n(C3CC3)cnc2c1[C@](O)(c1cnc(C(F)(F)F)c(Cl)c1)C(F)(F)F` has a hepatocyte CLint of 0.6 µL/min/10⁶ cells (metabolic stability; male Sprague-Dawley rat, hepatocytes; 0.5 µM, pH 7.4).
`Cc1ccc(N(O)N=Nc2ccc(S(=O)(=O)Nc3onc(C)c3C)cc2)cc1` gave an inhibition of 26.2% (ABTS scavenging; 20 µg/mL).
`Cc1[nH]c(C)c(S(=O)(=O)Nc2cc(Cl)c(Cl)c(Cl)c2)c1C(=O)N1CCC(F)(F)C1` has an IC50 of 4.1 µM (DRD3 (Homo sapiens, UniProt P35462); G protein activation, antagonist, BRET).
With `COCC(=O)N1CCC[C@H](C(=O)NCc2nc(-c3ccc(C)cc3)cs2)C1` the microsomal CLint was 24 µL/min/mg (metabolic stability; human, liver microsomes; 0.5 µM).
With `CCn1cc(C2CC2)c2c(Cc3ccc(C(F)(F)F)nc3)n(C)nc2c1=O` the Papp B→A was 56.4 ×10⁻⁶ cm/s (Caco-2).
`N#C[C@@]1(c2ccc3c(N)ncnn23)O[C@H](CO)[C@@H](O)[C@H]1O` has a fraction unbound of 0.819 (monkey, plasma).
`O=C1CC[C@H](N2Cc3cc(N4CCN(CC5CCN(c6ccc([C@@H]7c8ccc(O)cc8CC[C@@H]7c7ccccc7)cc6)CC5)CC4)ccc3C2=O)C(=O)N1` gave an MRT(0-inf) of 9.12 h (male Sprague-Dawley rat, plasma; oral, 20 mg/kg, fed).
The MRT(0-t) of `Cc1ncsc1-c1ccc(CNC(=O)[C@@H]2C[C@@H](O)CN2C(=O)[C@@H](NC(=O)CCCCCCCCCCNC(=O)O[C@H]2C[C@@H](C)C=C3C=C[C@H](C)[C@H](CC[C@@H]4C[C@@H](O)CC(=O)O4)[C@H]32)C(C)(C)C)cc1` is reported as 8.8 h (C57BL/6 mouse, plasma; oral, 60 mg/kg, single dose).
For `O=C(O)c1ccc2nc(-c3cc(Cl)cc(Cl)c3)oc2c1`, the fraction unbound was 0.0011 (human, plasma).
`O=c1c2ccc(OC3CCNCC3)cc2[nH]c2cc(F)cc(Cl)c12` gave a microsomal CLint of 18.8 µL/min/mg (metabolic stability; mouse, liver microsomes; 1 µM, pH 7.4).
For `c1ccc(-c2nc(NCc3ccco3)c3ccccc3n2)nc1`, the microsomal CLint was 232 µL/min/mg (metabolic stability; mouse, liver microsomes).
For `COCC(=O)N1CCC[C@H](C(=O)NCc2nc(-c3ccc(-c4cccnc4)cc3)cs2)C1`, the microsomal CLint was 55 µL/min/mg (metabolic stability; human, liver microsomes; 0.5 µM).
With `COc1ccc(C[C@@H](C)[C@@H](C)Cc2ccc(OC)c(OC)c2)cc1OC` the AUC(0-t) was 13800 ng·h/mL (male beagle dog, plasma; oral, 300 mg/kg/day, multiple doses, once daily).
`Cc1ccc2cncc(N3CCc4c(cc(Cn5ccnc5)cc4-c4cn(C)nc4C(F)(F)F)C3=O)c2c1` gave an MRT(0-inf) of 1.7 h (male CD-1 mouse, plasma; oral, 10 mg/kg).
With `O=c1c2c([nH]c3cc(Oc4ccc(OC(F)(F)F)cc4)c(F)cc13)CCCC2` the microsomal CLint was 105 µL/min/mg (metabolic stability; mouse, liver microsomes; 1 µM, pH 7.4).
For `CC[C@H](C)[C@@H]1NC(=O)[C@@](C)(NC(=O)[C@H](CCCNC(=N)N)NC(=O)[C@H](CC(C)C)NC(=O)[C@@H](NC(=O)[C@H](CCC(N)=O)NC(=O)[C@H](CC(C)C)NC(C)=O)[C@@H](C)O)CCCC=CCCC[C@@](C)(C(=O)N[C@@H](CC(C)C)C(=O)N[C@@H](Cc2ccc3ccccc3c2)C(N)=O)NC(=O)[C@H](CCCNC(=N)N)NC(=O)[C@H](CCC(N)=O)NC1=O`, the AUC(0-inf) was 260000 ng·h/mL (male BALB/c mouse, plasma; intravenous, 15 mg/kg).
`COc1ccc([C@@H](O)c2cc(-c3ncnc4cc(N5CCOCC5)ccc34)c(F)cc2Cl)nn1` gave a Cmax of 2360 ng/mL (human, plasma; oral, 300 mg, multiple doses, twice daily, patients).
`Cc1cc(NC(=O)c2cccc(NC(=O)/C=C/CN(C)C)c2)ccc1Nc1nccc(-c2cccnc2)n1` has a scaled CLint of 18.5 mL/min/kg (metabolic stability; male Wistar rat, hepatocytes; 1 µM).
`Cc1cc([C@@H](C)Nc2ccccc2C(=O)O)c2nc(N3CCC(F)(F)CC3)c(C#N)c(=O)n2c1` has a remaining binding of 100% (IKBKB (Homo sapiens, UniProt O14920); binding, competition with immobilised ligand; 1 µM).
`N=C(N)c1ccc(OCc2ccccc2COc2ccc(C(=N)N)cc2)cc1` gave a haemolysis of 1.7% (haemolysis; sheep; 200 µg/mL, 1 h).
The concentration of `NCc1cc2c(cc1F)C(=O)N(C1CCC(=O)NC1=O)C2` (stereo not drawn) is reported as 22.2 ng/mL (male CD-1 mouse, plasma; intravenous, 1 mg/kg, 1 h).
For `CNc1ncc2c(/C=C/C(=O)N3CCC(OC)CC3)nn(Cc3cccc(C(F)(F)F)c3)c2n1`, the remaining activity was 86% (Cyclin-dependent kinase 6, with cyclin D1 (CDK6, Homo sapiens, UniProt Q00534); enzyme activity, inhibitor, radiometric; 1 µM).
`C=CC(=O)N1CCC(COCC(=O)N2CCN(c3nc(-c4cnc(N)nc4C(F)F)nc(N4CCOC[C@@H]4C)n3)CC2)CC1` has a remaining binding of 100% (MAPK1 (Homo sapiens, UniProt P28482); binding, competition with immobilised ligand; 1 µM).
With `O=C(NO)c1cc(F)cc(OS(=O)(=O)Oc2ccc(Oc3ccccc3)cc2)c1` the IC50 was 2.65 µM (HDAC6 (Homo sapiens, UniProt Q9UBN7); enzyme activity, inhibitor, fluorescence).
The hepatocyte CLint of `Cc1nn(C2CC2)c(=O)c2nn(C)c(Cc3ccc(C(F)(F)F)c(C#N)c3)c12` is reported as 1 µL/min/10⁶ cells (metabolic stability; male Sprague-Dawley rat, hepatocytes; 0.5 µM, pH 7.4).
The MRT(0-t) of `CCOC(=O)C1=C(CN2CCC[C@@H]2C(=O)Nc2ccc(B(O)O)cc2)NC(c2nccs2)=N[C@H]1c1ccc(F)cc1Br` is reported as 0.54 h (CD-1 mouse, plasma; intravenous, 2 mg/kg).
With `CCOC(=O)[C@@]12C[C@@H]1[C@@H](n1ccc3c(NC)nc(C#Cc4ccc(Cl)s4)nc31)[C@H](O)[C@@H]2O` the concentration was 28.5 ng/mL (male Sprague-Dawley rat, plasma; oral, 3 mg/kg, 15 min).
With `COc1cc(C(=O)NC2CCN(C)CC2)c(F)cc1Nc1ncc(C(F)(F)F)c(Oc2cccc3c2C(=O)N(C)C3)n1` the Vd/F was 538 L (human, plasma; oral, 50 mg, multiple doses, once daily, patients).
The Papp of `Oc1cccc(-c2nc(N3CCC(c4ccccn4)C3)c3ccccc3n2)c1` (stereo not drawn) is reported as 33.2 ×10⁻⁶ cm/s (PAMPA; 10 µM, 3 h, pH 7.4).
`CCCCC(=O)Nc1ccc(-c2ccc3ncn(CCC)c(=O)c3c2)cn1` has a remaining binding of 70% (MAPK13 (Homo sapiens, UniProt O15264); binding, competition with immobilised ligand; 0.5 µM).
For `N#C[C@@]12C[C@@H]1[C@@H](n1cnc3c(N[C@@H](C4CCC4)C4CC4)nc(I)nc31)[C@H](O)[C@@H]2O`, the AUC(0-inf) was 105 ng·h/mL (male Wistar rat, plasma; oral, 3 mg/kg).
For `COc1ccc2c(c1)CN(C(=O)CCN1CCC(Cc3ccccc3)CC1)CC[S@@+]2[O-]`, the AUC(0-inf) was 2470 ng·h/mL (male human, plasma; intravenous, 0.4 mg/kg, healthy volunteers).
`C#C[C@]1(CO)O[C@@H](n2cnc3c(N)nc(F)nc32)C[C@@H]1O` gave an AUC(0-t) of 222 µM·h (monkey, plasma; oral, 75 mg/kg).
`COc1cccc(-c2n[nH]c(SCc3ccccn3)n2)c1OC` gave a concentration of 44900 ng/mL (male Sprague-Dawley rat, plasma; oral, 30 mg/kg, 15 min, single dose).
For `COc1cc(-c2cncc3c2CN(C)Cc2cc(N4CCNCC4)ccc2-3)cc(OC)c1OC`, the remaining activity was 107% (BMX (Homo sapiens, UniProt P51813); enzyme activity, inhibitor; 1 µM).

Some of these lines once more:
For `N#C[C@@]12C[C@@H]1[C@@H](n1cnc3c(N[C@@H](C4CCC4)C4CC4)nc(I)nc31)[C@H](O)[C@@H]2O`, the AUC(0-inf) was 105 ng·h/mL (male Wistar rat, plasma; oral, 3 mg/kg).
For `COc1ccc2c(c1)CN(C(=O)CCN1CCC(Cc3ccccc3)CC1)CC[S@@+]2[O-]`, the AUC(0-inf) was 2470 ng·h/mL (male human, plasma; intravenous, 0.4 mg/kg, healthy volunteers).
`C#C[C@]1(CO)O[C@@H](n2cnc3c(N)nc(F)nc32)C[C@@H]1O` gave an AUC(0-t) of 222 µM·h (monkey, plasma; oral, 75 mg/kg).
